Experimental data pooled from the literature.
Values joined by “and” are separate records of one study, mostly repeats; a detail may differ. ± gives the spread as reported.
Squalene synthase ERG9: Squalene synthase ERG9 (Saccharomyces cerevisiae, UniProt P29704)
SUMO-activating enzyme subunit 2 with SAE1: SUMO-activating enzyme subunit 2, with SAE1 (Homo sapiens, UniProt Q9UBT2)
KCNJ13 M125R: Inward rectifier potassium channel 13 (KCNJ13, Homo sapiens, UniProt O60928, M125R)
CDPK1: Calmodulin-domain protein kinase 1 (CDPK1, Toxoplasma gondii, UniProt Q9BJF5)
Grin1/Grin2a/Grin2b MK-801 channel binding site: Grin1/Grin2a/Grin2b, MK-801 channel binding site (Rattus norvegicus, UniProt P35439+Q00959+Q00960)

Sequences of proteins named here, by UniProt entry; tags and fusion partners are left off. Residues count along the entry.
UniProt P29704, 1-420 limits assumed: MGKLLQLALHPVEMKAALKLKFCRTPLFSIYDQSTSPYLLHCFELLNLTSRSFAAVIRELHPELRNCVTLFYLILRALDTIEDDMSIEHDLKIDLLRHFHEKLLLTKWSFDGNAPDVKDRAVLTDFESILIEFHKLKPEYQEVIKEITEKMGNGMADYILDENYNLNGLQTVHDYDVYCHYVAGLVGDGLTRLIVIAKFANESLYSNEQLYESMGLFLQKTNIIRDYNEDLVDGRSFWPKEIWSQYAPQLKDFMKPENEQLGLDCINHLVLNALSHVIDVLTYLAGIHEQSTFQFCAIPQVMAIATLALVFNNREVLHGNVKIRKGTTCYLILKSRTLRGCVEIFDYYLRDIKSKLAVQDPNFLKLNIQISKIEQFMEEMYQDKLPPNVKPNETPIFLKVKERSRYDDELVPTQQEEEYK
UniProt O60928, whole entry M125R: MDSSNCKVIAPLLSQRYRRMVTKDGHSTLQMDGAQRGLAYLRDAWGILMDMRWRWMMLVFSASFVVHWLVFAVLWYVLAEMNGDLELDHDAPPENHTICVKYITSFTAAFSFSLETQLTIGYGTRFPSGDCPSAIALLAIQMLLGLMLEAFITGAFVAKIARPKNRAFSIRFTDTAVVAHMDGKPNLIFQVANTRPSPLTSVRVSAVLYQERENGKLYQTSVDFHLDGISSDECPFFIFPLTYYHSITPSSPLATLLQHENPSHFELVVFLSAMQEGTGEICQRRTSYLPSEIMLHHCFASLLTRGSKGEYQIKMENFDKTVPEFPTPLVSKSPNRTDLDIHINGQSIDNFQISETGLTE
UniProt P18654, 399-740 limits assumed: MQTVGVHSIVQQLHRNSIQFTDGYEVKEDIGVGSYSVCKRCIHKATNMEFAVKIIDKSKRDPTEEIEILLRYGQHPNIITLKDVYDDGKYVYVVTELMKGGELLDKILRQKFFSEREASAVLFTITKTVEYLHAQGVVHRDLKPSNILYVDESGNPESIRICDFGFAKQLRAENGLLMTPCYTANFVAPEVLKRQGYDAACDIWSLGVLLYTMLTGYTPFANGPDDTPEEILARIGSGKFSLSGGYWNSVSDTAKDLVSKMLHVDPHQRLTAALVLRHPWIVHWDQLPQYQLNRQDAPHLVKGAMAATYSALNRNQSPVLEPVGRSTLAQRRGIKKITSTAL
UniProt Q9Y253, 1-437 limits assumed: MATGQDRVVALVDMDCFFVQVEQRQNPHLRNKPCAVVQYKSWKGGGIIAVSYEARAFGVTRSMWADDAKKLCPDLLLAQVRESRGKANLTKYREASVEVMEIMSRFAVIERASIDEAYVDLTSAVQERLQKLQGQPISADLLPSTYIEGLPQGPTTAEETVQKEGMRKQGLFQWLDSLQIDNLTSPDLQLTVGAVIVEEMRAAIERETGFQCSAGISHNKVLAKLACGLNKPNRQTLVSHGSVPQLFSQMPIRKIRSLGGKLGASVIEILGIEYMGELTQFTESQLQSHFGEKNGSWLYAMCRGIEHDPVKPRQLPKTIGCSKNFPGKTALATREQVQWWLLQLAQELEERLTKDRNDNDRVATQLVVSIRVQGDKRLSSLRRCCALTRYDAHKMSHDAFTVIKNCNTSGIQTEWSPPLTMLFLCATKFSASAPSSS
UniProt P34913, whole entry: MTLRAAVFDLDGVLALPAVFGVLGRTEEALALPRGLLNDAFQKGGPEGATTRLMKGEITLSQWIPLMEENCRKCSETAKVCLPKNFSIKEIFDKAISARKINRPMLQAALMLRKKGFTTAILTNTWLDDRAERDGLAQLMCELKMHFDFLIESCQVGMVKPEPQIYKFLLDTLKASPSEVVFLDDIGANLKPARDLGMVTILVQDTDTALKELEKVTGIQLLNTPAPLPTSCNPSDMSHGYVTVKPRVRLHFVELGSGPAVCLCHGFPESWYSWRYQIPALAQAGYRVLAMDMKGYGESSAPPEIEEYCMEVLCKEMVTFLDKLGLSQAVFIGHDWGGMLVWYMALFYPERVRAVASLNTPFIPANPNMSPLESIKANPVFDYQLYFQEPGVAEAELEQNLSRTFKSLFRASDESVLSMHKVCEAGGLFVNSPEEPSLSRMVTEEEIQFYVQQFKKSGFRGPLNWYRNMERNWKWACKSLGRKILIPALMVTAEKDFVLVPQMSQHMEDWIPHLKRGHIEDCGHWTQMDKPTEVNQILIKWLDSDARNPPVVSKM
UniProt C4Z6Z2, 1-611: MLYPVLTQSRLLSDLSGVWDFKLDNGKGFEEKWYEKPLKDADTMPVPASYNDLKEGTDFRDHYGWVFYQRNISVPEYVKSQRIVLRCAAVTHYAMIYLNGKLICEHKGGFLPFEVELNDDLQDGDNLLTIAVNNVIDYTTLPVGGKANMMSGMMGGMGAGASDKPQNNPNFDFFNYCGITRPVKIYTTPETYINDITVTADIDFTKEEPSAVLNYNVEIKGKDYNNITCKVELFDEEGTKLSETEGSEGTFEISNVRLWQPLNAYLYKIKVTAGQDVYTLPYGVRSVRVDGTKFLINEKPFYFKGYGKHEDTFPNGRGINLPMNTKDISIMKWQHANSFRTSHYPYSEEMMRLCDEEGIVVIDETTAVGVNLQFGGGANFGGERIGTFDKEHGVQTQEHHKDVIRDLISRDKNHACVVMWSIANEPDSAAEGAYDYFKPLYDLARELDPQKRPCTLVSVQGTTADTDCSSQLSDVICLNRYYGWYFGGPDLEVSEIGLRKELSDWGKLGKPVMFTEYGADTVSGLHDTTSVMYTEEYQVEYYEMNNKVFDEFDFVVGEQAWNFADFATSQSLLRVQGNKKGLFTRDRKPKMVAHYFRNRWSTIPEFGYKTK
UniProt Q8E0N2, whole entry: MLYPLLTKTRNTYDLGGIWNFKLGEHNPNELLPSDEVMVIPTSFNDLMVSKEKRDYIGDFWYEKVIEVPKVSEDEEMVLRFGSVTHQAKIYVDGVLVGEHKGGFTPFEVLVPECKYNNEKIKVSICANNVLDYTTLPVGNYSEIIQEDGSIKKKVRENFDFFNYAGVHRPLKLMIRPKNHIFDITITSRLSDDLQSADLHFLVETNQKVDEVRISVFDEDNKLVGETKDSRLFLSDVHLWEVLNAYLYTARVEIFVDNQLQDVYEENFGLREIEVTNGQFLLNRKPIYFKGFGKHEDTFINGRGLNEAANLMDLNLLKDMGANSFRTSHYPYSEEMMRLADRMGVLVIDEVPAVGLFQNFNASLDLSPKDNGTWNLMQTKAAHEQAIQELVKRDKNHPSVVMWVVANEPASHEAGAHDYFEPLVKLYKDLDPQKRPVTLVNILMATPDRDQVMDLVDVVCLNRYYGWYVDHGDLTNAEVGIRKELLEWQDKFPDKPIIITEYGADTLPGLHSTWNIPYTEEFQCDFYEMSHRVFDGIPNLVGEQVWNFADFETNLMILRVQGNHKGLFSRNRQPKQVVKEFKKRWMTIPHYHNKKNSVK
UniProt P27958, 2421-3011 limits assumed: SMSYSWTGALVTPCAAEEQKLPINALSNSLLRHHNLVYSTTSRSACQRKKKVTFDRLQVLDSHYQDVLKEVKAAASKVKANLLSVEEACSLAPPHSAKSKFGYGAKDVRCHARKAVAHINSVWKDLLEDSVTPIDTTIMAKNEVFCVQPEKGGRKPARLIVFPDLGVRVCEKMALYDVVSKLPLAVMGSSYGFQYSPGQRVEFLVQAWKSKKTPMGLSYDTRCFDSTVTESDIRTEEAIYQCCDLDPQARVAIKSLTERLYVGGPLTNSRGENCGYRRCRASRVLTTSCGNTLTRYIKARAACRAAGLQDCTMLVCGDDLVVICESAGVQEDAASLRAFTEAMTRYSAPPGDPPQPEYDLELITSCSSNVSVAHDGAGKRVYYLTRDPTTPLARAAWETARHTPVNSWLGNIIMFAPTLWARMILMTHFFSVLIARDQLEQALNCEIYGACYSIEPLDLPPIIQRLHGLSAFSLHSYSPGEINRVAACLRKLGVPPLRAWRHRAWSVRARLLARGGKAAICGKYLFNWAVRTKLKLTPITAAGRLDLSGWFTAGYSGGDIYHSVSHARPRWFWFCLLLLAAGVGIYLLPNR
UniProt P06802, 85-906 limits assumed: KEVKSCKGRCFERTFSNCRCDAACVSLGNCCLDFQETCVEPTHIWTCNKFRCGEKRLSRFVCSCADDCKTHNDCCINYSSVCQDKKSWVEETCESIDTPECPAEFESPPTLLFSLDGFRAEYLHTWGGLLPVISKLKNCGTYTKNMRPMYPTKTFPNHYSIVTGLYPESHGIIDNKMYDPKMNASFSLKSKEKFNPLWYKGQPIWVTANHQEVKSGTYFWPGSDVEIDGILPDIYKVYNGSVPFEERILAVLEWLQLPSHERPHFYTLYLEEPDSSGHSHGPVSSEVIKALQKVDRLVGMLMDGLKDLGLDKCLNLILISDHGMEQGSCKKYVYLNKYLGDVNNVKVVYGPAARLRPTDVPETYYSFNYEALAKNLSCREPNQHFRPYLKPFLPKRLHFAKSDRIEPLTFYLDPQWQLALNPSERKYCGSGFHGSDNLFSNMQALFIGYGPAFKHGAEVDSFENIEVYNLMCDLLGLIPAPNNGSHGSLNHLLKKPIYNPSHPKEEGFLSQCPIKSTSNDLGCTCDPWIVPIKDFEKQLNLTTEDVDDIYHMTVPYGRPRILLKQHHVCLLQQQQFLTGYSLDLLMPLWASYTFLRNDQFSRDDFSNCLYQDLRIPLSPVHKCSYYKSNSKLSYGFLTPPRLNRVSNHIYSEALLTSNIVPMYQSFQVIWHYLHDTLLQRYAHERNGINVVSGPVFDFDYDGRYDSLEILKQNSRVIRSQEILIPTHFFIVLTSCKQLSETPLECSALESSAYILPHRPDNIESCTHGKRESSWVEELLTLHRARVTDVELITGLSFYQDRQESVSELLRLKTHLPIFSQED
UniProt Q04206, whole entry: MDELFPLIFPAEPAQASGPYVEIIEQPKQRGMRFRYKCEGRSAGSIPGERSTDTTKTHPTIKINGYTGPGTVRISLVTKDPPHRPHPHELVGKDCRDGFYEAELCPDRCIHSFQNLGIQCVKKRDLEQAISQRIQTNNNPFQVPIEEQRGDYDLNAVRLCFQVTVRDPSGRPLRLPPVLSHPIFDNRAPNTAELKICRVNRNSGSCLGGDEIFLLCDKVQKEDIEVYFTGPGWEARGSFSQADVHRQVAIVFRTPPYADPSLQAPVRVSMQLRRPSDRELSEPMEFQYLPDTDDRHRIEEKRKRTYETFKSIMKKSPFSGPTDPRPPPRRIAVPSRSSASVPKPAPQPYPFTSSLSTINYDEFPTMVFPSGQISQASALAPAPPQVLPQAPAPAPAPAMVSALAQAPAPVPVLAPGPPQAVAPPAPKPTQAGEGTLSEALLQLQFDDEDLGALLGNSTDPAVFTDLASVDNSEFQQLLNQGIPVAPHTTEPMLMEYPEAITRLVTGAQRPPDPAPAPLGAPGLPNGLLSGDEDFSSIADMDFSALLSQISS
UniProt P21588, 29-576 limits assumed: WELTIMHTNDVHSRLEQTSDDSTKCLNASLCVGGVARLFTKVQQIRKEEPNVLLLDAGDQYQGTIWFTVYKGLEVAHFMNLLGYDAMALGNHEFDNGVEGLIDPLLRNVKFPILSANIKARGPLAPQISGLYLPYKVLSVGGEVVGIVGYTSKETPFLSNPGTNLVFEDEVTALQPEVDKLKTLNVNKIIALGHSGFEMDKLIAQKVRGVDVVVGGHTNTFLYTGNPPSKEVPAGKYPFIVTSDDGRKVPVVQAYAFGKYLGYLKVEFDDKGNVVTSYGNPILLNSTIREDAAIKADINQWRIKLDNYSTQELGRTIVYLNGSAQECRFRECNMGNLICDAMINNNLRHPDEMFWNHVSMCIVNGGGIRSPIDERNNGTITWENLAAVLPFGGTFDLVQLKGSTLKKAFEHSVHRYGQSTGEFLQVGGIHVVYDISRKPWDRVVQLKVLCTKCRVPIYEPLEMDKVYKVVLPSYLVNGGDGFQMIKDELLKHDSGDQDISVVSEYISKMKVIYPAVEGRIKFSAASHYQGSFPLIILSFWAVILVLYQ

O=C(Nc1ccc(-c2ccccc2)cc1)[C@H]1O[C@H](O[C@H]2[C@H](O[C@@H]3O[C@H](C(=O)Nc4ccc(-c5ccccc5)cc4)[C@@H](O[C@H]4O[C@@H](CNS(=O)(=O)O)[C@@H](O)[C@H](O)[C@H]4NS(=O)(=O)O)[C@H]3O)[C@@H](O)[C@H](NS(=O)(=O)O)C[C@@H]2NS(=O)(=O)O)[C@H](NS(=O)(=O)O)[C@@H](O)[C@@H]1O — IC50 (Heparanase (HPSE, Homo sapiens, UniProt Q9Y251); enzyme activity, inhibitor, TR-FRET): 2.61 ± 0.41 µM
COc1cc(-c2n[nH]c3ccc(/C=C(\C#N)n4cncn4)cc23)cc(OC)c1OC — IC50 (Ribosomal protein S6 kinase alpha-3, C-terminal kinase domain (Rps6ka3, Mus musculus, UniProt P18654); kinase activity, inhibitor; C-terminal kinase domain): 0.047 µM
O=c1[nH]c2sc3c(c2c(=O)n1O)CCC3 — IC50 (Gag-Pol polyprotein, integrase (gag-pol, Human immunodeficiency virus 1, UniProt P03366); integrase strand transfer, inhibitor): 5.6 ± 0.5 µM
O=[N+]([O-])c1ccc(N=Nc2c(O)ccc3cc(S(=O)(=O)O)ccc23)cc1 — IC50 (Bcl-2-related protein A1 (Mus musculus, UniProt Q07440, C113S/P104K); binding, fluorescence polarization; together with: FITC-Noxa peptide): 59.2 µM
COC(=O)[C@@]1(C)C=C(C(=O)Nc2cc(C(=O)Nc3ccc(Nc4nccc(-c5cccnc5)n4)cc3)ccc2C)C(=O)CC1 — IC50 (MAPK8 (Homo sapiens, UniProt P45983); enzyme activity; together with: glutathione 10 mM): 0.013 ± 0.002 µM
COc1ccc2c(=O)oc3c(OC)cc(CCN4CCCCC4)c4c(=O)oc1c2c34 — IC50 (TLR2 (Homo sapiens, UniProt O60603); reporter gene, antagonist, SEAP reporter; HEK-Blue hTLR2 cells; 24 h, together with: Pam3CSK4 100 ng/mL): 1.7 ± 0.15 µM
CNc1nc(N2CCNCC2)c2sc3nc(-c4ccccc4)ccc3c2n1 — IC50 (Beta-glucuronidase (uidA, Escherichia coli, UniProt P05804); enzyme activity, inhibitor): 0.05 ± 0.02 µM
O=C1NC(=S)NC(=O)C1=Cc1cn(C(=O)c2ccc3ccccc3c2)c2ccc(Cl)cc12 — IC50 (DNA polymerase eta (POLH, Homo sapiens, UniProt Q9Y253); strand-displacement synthesis, inhibitor, fluorescence; together with: 0.1 mM dTTP): 17 µM and 16.6 µM
COc1ccc2c(c1)c1c(C)c3cnccc3c(C)c1n2C — IC50 (Toll-like receptor 3 (Homo sapiens, UniProt O15455); reporter gene, SEAP reporter; HEK-Blue hTLR3; together with: poly(I:C)): 0.12 ± 0.04 µM
CC(C)=CCC/C(C)=C/CCCCN1[C@@H](COP(=O)(O)OP(=O)(O)O)[C@]1(C)CC/C=C(\C)CCC=C(C)C (relative stereo) — IC50 (Squalene synthase ERG9; enzyme activity, inhibitor; pH 7.2, together with: 1.5 mM pyrophosphate, 100 µM [3H]FPP): 1.9 ± 0.2 µM
O=C(NO)c1cccc(F)c1F — IC50 (Histone deacetylase 6, CD2 catalytic domain (hdac6, Danio rerio, UniProt F8W4B7); enzyme activity, inhibitor, fluorogenic; 30 min, together with: Ac-RHK(Ac)K(Ac)-AMC): 1.7 ± 0.2 µM
O=C[C@@H]1CCC(=O)NCCCn2cc(nn2)C[C@H](NC(=O)OCc2ccccc2)C(=O)N[C@@H](CC2CCCCC2)C(=O)N1 — IC50 (Genome polyprotein, 3C-like protease (ORF1, Hu/NV/NV/1968/US, UniProt Q83883); protease activity, inhibitor, FRET; Norovirus; 1 h, pH 8): 1.6 µM
C/C=C(\NC(=O)[C@@H](NC(=O)[C@@H](NC(=O)[C@H](C)NC(=O)C/C(C)=C/Cl)[C@@H](C)CC)[C@@H](C)O)C(=O)N[C@H]1CC[C@@H](O)N([C@@H](Cc2ccccc2)C(=O)N(C)[C@@H](Cc2ccc(O)cc2)C(=O)N[C@H](C(=O)O)C(C)C)C1=O — IC50 (Proteinase K (PROK, Engyodontium album, UniProt P06873); enzyme activity, inhibitor; 30 min, pH 7.4, 22 °C, together with: Suc-Ala-Ala-Pro-Phe-AMC): > 5 µM
O=C(C=C(O)c1cc(Cc2ccc(F)cc2F)cn(Cc2ccccc2F)c1=O)C(=O)N[C@H]1CCC[C@@H]1O (relative stereo) — IC50 (Gag-Pol polyprotein, integrase (gag-pol, Human immunodeficiency virus type 1 group M subtype B, UniProt P04585); integrase strand transfer, inhibitor): 0.048 µM
CS(=O)(=O)Cc1onc(-c2cccc(Cl)c2)c1-c1ccnc(N[C@@H]2CCN(Cc3nccs3)C2)n1 — IC50 (cGMP-dependent protein kinase (PKG, Plasmodium falciparum, UniProt Q8I719); kinase activity, inhibitor, IMAP; together with: ATP 10 µM, FAM-PKAtide): 0.792 ± 0.115 µM
COC(=O)C1=C(C(=O)OC)C2([C@@H](Cc3ccccc3)Nc3ccc(C)cc3)C=CC1O2 (stereo partly shown) — IC50 (SUMO-activating enzyme subunit 2 with SAE1; SUMOylation, inhibitor, AlphaScreen; together with: SUMO1-RanGAP1 conjugation): 2.75 µM
CC(C)Cc1cc(C(=O)O)nc(O)n1 — IC50 (VIM-2 (Escherichia coli, UniProt Q5U7L7); 10 min preincubation, together with: FC5 fluorogenic substrate): > 1000 µM
CC(C)=CCC/C(C)=C/CCCCN1[C@@H](COP(=O)(O)CP(=O)(O)O)[C@]1(C)CC/C=C(\C)CCC=C(C)C (relative stereo) — IC50 (Squalene synthase ERG9; enzyme activity, inhibitor; pH 7.2, tetrabutylammonium salt, together with: 100 µM [3H]FPP, no added pyrophosphate): 3.2 ± 0.2 µM
COC(=O)C1=C(C(=O)OC)C2([C@H](Cc3ccccc3)Nc3ccc(Cl)cc3)C=CC1O2 (stereo partly shown) — IC50 (SUMO-activating enzyme subunit 2 with SAE1; SUMOylation, inhibitor, AlphaScreen; together with: SUMO1-RanGAP1 conjugation): 2.4 µM
[2H]c1c([2H])c(S(=O)(=O)N2CCC(F)(C(=O)Nc3ccc4cc(C(=O)O)ccc4c3)CC2)c(C([2H])([2H])[2H])c([2H])c1C([2H])([2H])[2H] — IC50 (EPHX2 (Homo sapiens, UniProt P34913); pH 7.0, 30 °C, together with: CMNPC substrate 5 µM): 1.46 µM
c1ccc(-c2ccc3c(n2)sc2c(N4CCNCC4)ncnc23)cc1 — IC50 (Beta-glucuronidase (Lachnospira eligens, UniProt C4Z6Z2); enzyme activity, inhibitor): 0.27 ± 0.05 µM
O=C(NC1CCN(Cc2cc(Cl)c3cccnc3c2O)CC1)c1cccc(Cl)c1 — IC50 (KCNJ13 M125R; ion current, inhibitor, thallium flux; T-REx-HEK293): 3.1 µM
NCc1ccc(-c2ncc(OCC3CCNCC3)nc2-c2ccc(-c3cn[nH]c3)cc2)cc1 — IC50 (Genome polyprotein, NS2B-NS3 protease (pol, Dengue virus type 3, UniProt Q6YMS4); enzyme activity, inhibitor; dengue virus type 3 NS2B-NS3 protease): 0.2 ± 0.07 µM
COc1ccc(Sc2cc(C(=O)N3Cc4ccccc4C3)ccc2O)cc1OC — IC50 (HSP90AA1 (Homo sapiens, UniProt P07900); binding, fluorescence polarization; together with: FITC-geldanamycin): ~0.53 µM
OCCNc1nc(N2CCNCC2)c2sc3nc(-c4ccccc4)ccc3c2n1 — IC50 (Beta-glucuronidase (Streptococcus agalactiae serotype V, UniProt Q8E0N2); enzyme activity, inhibitor): 1.3 ± 0.2 µM
Nc1nc2[nH]cc(Cc3ccc(C(=O)Nc4ccccc4C(=O)O)cc3)c2c(=O)[nH]1 — IC50 (Dihydrofolate reductase (Wuchereria bancrofti, UniProt J9F199); enzyme activity, inhibitor): 18 ± 6 µM
O=c1ccn([C@@H]2O[C@H](COP(=O)(O)OP(=O)(O)OP(=O)(O)O)[C@@H](O)[C@]2(F)Br)c(=O)[nH]1 — IC50 (Genome polyprotein, NS5B polymerase (Hepatitis C virus genotype 1a, UniProt P27958); polymerase activity, inhibitor; genotype 1a): 0.38 µM
O=C(NC1CCN(Cc2cc(Cl)c3cccnc3c2O)CC1)OCc1ccccc1 — IC50 (KCNJ13 M125R; ion current, inhibitor, thallium flux; T-REx-HEK293): 6.3 µM
CNc1nc(N2CCNCC2)c2sc3ncccc3c2n1 — IC50 (Beta-glucuronidase (Lachnospira eligens, UniProt C4Z6Z2); enzyme activity, inhibitor): 0.5 ± 0.1 µM
NC(=O)c1cc(Sc2ccc(N)cc2)nc2ccccc12 — IC50 (CDPK1; kinase activity, inhibitor, ELISA; together with: syntide-2 substrate, ATP 25 µM): > 20 µM
C=CCC(Nc1ccccc1)C12C=CC(O1)C(C(=O)OC)=C2C(=O)OC (stereo not shown) — IC50 (SUMO-activating enzyme subunit 2 with SAE1; SUMOylation, inhibitor, AlphaScreen; together with: SUMO1-RanGAP1 conjugation): 1.33 µM
O=C(O)CCOc1c(SSc2cnn(-c3ccccc3)c(=O)c2OCCC(=O)O)cnn(-c2ccccc2)c1=O — IC50 (srtA (Staphylococcus aureus, UniProt Q2FV99); inhibitor): 6.1 ± 0.5 µM
COc1cccc2c(N3CCC(CCP(=O)(O)O)CC3)ncnc12 — IC50 (Enpp1 (Mus musculus, UniProt P06802); cGAMP degradation, radiolabelled cGAMP TLC; mouse plasma; together with: cGAMP 5 µM): 0.004 µM
Nc1nc2c(ncn2[C@@H]2CC[C@H](OC(C(=O)O)P(=O)(O)O)C2)c(=O)[nH]1 (relative stereo) — IC50 (DNA polymerase catalytic subunit (Human cytomegalovirus, UniProt P08546); inhibitor; together with: [3H]dGTP, calf thymus DNA): 20 ± 9 µM
c1nc(N2CCNCC2)c2sc3nc(N4CCOCC4)ccc3c2n1 — IC50 (Beta-glucuronidase (Streptococcus agalactiae serotype V, UniProt Q8E0N2); enzyme activity, inhibitor): 0.73 ± 0.07 µM
N=C(N)c1ccc(NCCOCCNc2ccc(C(=N)N)cc2)cc1 — IC50 (Grin1/Grin2a/Grin2b MK-801 channel binding site; pH 7): 0.85 ± 0.23 µM
C[C@@]12C3=C(C(=O)c4occ(c41)[C@@H](O)[C@@H]1O[C@@H]12)[C@@H]1CCC(O)[C@@]1(C)CC3 (stereo partly shown) — IC50 (RELA (Homo sapiens, UniProt Q04206); DNA binding, inhibitor, ELISA-type binding; HeLa nuclear extract; together with: TNF-α): 27 µM
CNCc1ccc(-c2ncc(OCC3CCNCC3)nc2-c2ccc(-c3ccoc3)cc2)cc1 — IC50 (Genome polyprotein, NS2B-NS3 protease (ZIKV, UniProt A0A024B7W1); enzyme activity, inhibitor; Gly4-Ser-Gly4-linked NS2B-NS3 protease): 0.53 ± 0.06 µM
Cc1cnc(Nc2ccc(N3CCN(C)CC3)cc2)nc1Nc1cccc(NS(=O)(=O)C(C)(C)C)c1 — IC50 (Bromodomain-containing protein 4, BD1 (BRD4, Homo sapiens, UniProt O60885)): 0.105 µM
O=C(NC1CCN(Cc2cc(Cl)c3cccnc3c2O)CC1)c1ccc(Cl)cc1 — IC50 (KCNJ13 M125R; ion current, inhibitor, thallium flux; T-REx-HEK293): 3.9 µM
NC(=O)c1cc(Sc2ccc(Oc3ccccc3)cc2)nc2ccccc12 — IC50 (CDPK1; kinase activity, inhibitor, ELISA; together with: syntide-2 substrate, ATP 25 µM): 1.3 µM
Nc1c(S(=O)(=O)Oc2ccccc2NC(=O)Cc2c[nH]c3ccccc23)ccc2ccccc12 — IC50 (5'-nucleotidase (Rattus norvegicus, UniProt P21588); malachite green; rat): 0.91 ± 0.04 µM
O=C(O)COCCN1CCN(C(c2ccccc2)c2ccc(Cl)cc2)CC1 (stereo not shown) — IC50 (RNMT (Homo sapiens, UniProt O43148); enzyme activity, inhibitor): 102 ± 21 µM
CC(Oc1ccccc1)C(=O)Nc1ccc(Cl)cc1 (stereo not shown) — IC50 (guaB (Escherichia coli K-12, UniProt P0ADG7, L444Y/S250A); enzyme activity, inhibitor; corrected for open conformation): 0.54 µM
CN(CCCCCN(C)c1ccc(C(=N)N)cc1)c1ccc(C(=N)N)cc1 — IC50 (Grin1/Grin2a/Grin2b MK-801 channel binding site; pH 7): 0.56 ± 0.08 µM
C=CC[C@H](Nc1ccc(Cl)cc1)C12C=CC(O1)C(C(=O)OC)=C2C(=O)OC (stereo partly shown) — IC50 (SUMO-activating enzyme subunit 2 with SAE1; SUMOylation, inhibitor, AlphaScreen; together with: SUMO1-RanGAP1 conjugation): 4.15 µM

Excerpt of the above:
O=C(NC1CCN(Cc2cc(Cl)c3cccnc3c2O)CC1)OCc1ccccc1 — IC50 (KCNJ13 M125R; ion current, inhibitor, thallium flux; T-REx-HEK293): 6.3 µM
CS(=O)(=O)Cc1onc(-c2cccc(Cl)c2)c1-c1ccnc(N[C@@H]2CCN(Cc3nccs3)C2)n1 — IC50 (cGMP-dependent protein kinase (PKG, Plasmodium falciparum, UniProt Q8I719); kinase activity, inhibitor, IMAP; together with: ATP 10 µM, FAM-PKAtide): 0.792 ± 0.115 µM
O=c1ccn([C@@H]2O[C@H](COP(=O)(O)OP(=O)(O)OP(=O)(O)O)[C@@H](O)[C@]2(F)Br)c(=O)[nH]1 — IC50 (Genome polyprotein, NS5B polymerase (Hepatitis C virus genotype 1a, UniProt P27958); polymerase activity, inhibitor; genotype 1a): 0.38 µM
